Experimental data of several laboratories.
Compare with care: the assays were run in different laboratories. ± marks the error that the study gave.

`O=c1cc(-c2ccc(O)cc2)oc2c1c(O)cc1oc3cc(O)c(O)cc3c12` has an EC50 of 2990 µM (ABTS scavenging, absorbance).
With `CCCC[C@H](NC(=O)[C@@H](NC(=O)[C@H](CC(=O)O)NC(=O)[C@H](CCC(N)=O)NC(=O)[C@H](CC(C)C)NC(=O)[C@H](CC(C)C)NC(=O)[C@H](CCCN)NC(=O)[C@H](CCCNC(=N)N)NC(=O)[C@H](C)NC(=O)[C@H](CO)NC(=O)[C@H](CC(C)C)NC(=O)[C@H](CCC(N)=O)NC(=O)[C@H](CC)NC(=O)[C@H](CC(C)C)NC(=O)[C@@H](NC(=O)[C@H](CCCN)NC(=O)[C@H](CCCNC(=N)N)NC(=O)[C@H](Cc1ccc(O)cc1)NC(=O)[C@H](CO)NC(=O)[C@H](CCC(N)=O)NC(=O)[C@@H](NC(=O)[C@H](Cc1ccccc1)NC(=O)[C@@H](NC(=O)[C@H](C)NC(=O)[C@H](CC(=O)O)NC(=O)[C@H](C)NC(=O)[C@H](Cc1ccc(O)cc1)NC)[C@@H](C)CC)[C@@H](C)O)C(C)C)[C@@H](C)CC)C(=O)N[C@@H](CC(=O)O)C(=O)NCCCCNC(=N)N` the relative potency was 91.2 (GH release; male rat, serum; subcutaneous, dose not given, 15 min; relative to: GHRH(1-29)NH2).
With `CC(=O)[O-].O.O.O.O.[Co+2].[O-]c1ccc(Br)cc1C=NCCN1CCOCC1` the inhibition was 58.5% (nitric oxide scavenging; 240 µM).
`CCCCC1NC(=O)c2ccccc21` (racemic): “black tail length” 3.1 ± 0.9 cm (thrombosis; mouse, carrageenan-induced thrombosis; oral, 50 mg/kg daily for 2 days, 24 h after carrageenan).
`Cc1cc(O)c(C=O)c2c1C(=O)Oc1c(CO)c(O)c3c(c1O2)C(O)OC3=O` (centres unmarked) — result for TNF-alpha level: “decreased” (streptozotocin-diabetic male albino rats, serum; dose not given, 9 weeks; relative to: diabetic control).
For `CCCC[C@H](NC(=O)[C@@H](NC(=O)[C@H](CC(=O)O)NC(=O)[C@H](CCC(N)=O)NC(=O)[C@H](CC(C)C)NC(=O)[C@H](CC(C)C)NC(=O)[C@H](CCCN)NC(=O)[C@H](CCCNC(=N)N)NC(=O)[C@H](C)NC(=O)[C@H](CO)NC(=O)[C@H](CC(C)C)NC(=O)[C@H](CCC(N)=O)NC(=O)[C@H](CC)NC(=O)[C@H](CC(C)C)NC(=O)[C@@H](NC(=O)[C@H](CCCN)NC(=O)[C@H](CCCNC(=N)N)NC(=O)[C@H](Cc1ccc(O)cc1)NC(=O)[C@H](CO)NC(=O)[C@H](CCC(N)=O)NC(=O)[C@@H](NC(=O)[C@H](Cc1ccccc1)NC(=O)[C@@H](NC(=O)[C@H](C)NC(=O)[C@H](CC(=O)O)NC(=O)[C@@H](C)NC(=O)CCc1ccc(O)cc1)[C@@H](C)CC)[C@@H](C)O)C(C)C)[C@@H](C)CC)C(=O)N[C@@H](CC(=O)O)C(=O)N[C@H](CCCNC(=N)N)C(=O)NC`, the relative potency was 0.93 (GH release; rat, male, serum; subcutaneous, 3 µg/kg, 15 min; relative to: reference GHRH agonist JI-38).
`COc1ccc2c(c1OC)C(C(Cl)(Cl)Cl)N1CCc3cc4c(cc3C1=C2)OCO4` (centres unmarked) gave a TBARS of 2.9 ± 0.74 nmol MDA/mg protein (rat, STZ-induced diabetic, liver; oral, 12 mg/kg, day 28).
For `C[C@@H](O)[C@@H]1NC(=O)[C@H](CCCCN)NC(=O)[C@@H](Cc2ccc(NC(N)=O)cc2)NC(=O)[C@H](Cc2ccc(NC(=O)[C@@H]3CC(=O)NC(=O)N3)cc2)NC(=O)[C@H](NC(=O)[C@H](Cc2ccc(Cl)cc2)NC(=O)CN2CCN(CC(=O)O)CCN(CC(=O)O)CCN(CC(=O)O)CC2)CSSC[C@@H](C(=O)N[C@H](Cc2ccc(O)cc2)C(N)=O)NC1=O` [gallium-68 labelled], the median SUVmax was 18 (PET/CT; neuroendocrine tumour patients, liver metastases; 80 µg peptide mass).
The relative potency of `CCCC[C@H](NC(=O)[C@@H](NC(=O)[C@H](CC(=O)O)NC(=O)[C@H](CCC(N)=O)NC(=O)[C@H](CC(C)C)NC(=O)[C@H](CC(C)C)NC(=O)[C@H](CCCN)NC(=O)[C@H](CCCNC(=N)N)NC(=O)[C@H](C)NC(=O)[C@H](CO)NC(=O)[C@H](CC(C)C)NC(=O)[C@H](CCC(N)=O)NC(=O)[C@H](CC)NC(=O)[C@H](CC(C)C)NC(=O)[C@@H](NC(=O)[C@H](CCCN)NC(=O)[C@H](CCCNC(=N)N)NC(=O)[C@H](Cc1ccc(O)cc1)NC(=O)[C@H](CO)NC(=O)[C@H](CC(N)=O)NC(=O)[C@@H](NC(=O)[C@H](Cc1ccccc1)NC(=O)[C@@H](NC(=O)[C@H](C)NC(=O)[C@H](CC(=O)O)NC(=O)[C@@H](CC)NC(=O)CCc1ccc(O)cc1)[C@@H](C)CC)[C@@H](C)O)C(C)C)[C@@H](C)CC)C(=O)N[C@@H](CO)C(=O)N[C@@H](CCCNC(=N)N)C(=O)NCCCC(N)=O` is reported as 114 (GH release; male rat, serum; subcutaneous, dose not given, 30 min; relative to: GHRH(1-29)NH2).
For `NS(=O)(=O)NCC(F)(F)c1ccccc1F`, the ED50 was 108 ± 2 mg/kg (protection from scPTZ seizures; mouse; together with: pentylenetetrazol 85 mg/kg s.c.).
`CCCC[C@H](NC(=O)[C@@H](NC(=O)[C@H](CC(=O)O)NC(=O)[C@H](CCC(N)=O)NC(=O)[C@H](CC(C)C)NC(=O)[C@H](CC(C)C)NC(=O)[C@H](CCCN)NC(=O)[C@H](CCCNC(=N)N)NC(=O)[C@H](C)NC(=O)[C@H](CO)NC(=O)[C@H](CC(C)C)NC(=O)[C@H](CCC(N)=O)NC(=O)[C@H](CC)NC(=O)[C@H](CC(C)C)NC(=O)[C@@H](NC(=O)[C@H](CCCN)NC(=O)[C@H](CCCNC(=N)N)NC(=O)[C@H](Cc1ccc(O)cc1)NC(=O)[C@H](CO)NC(=O)[C@H](CCC(N)=O)NC(=O)[C@@H](NC(=O)[C@H](Cc1ccccc1)NC(=O)[C@@H](NC(=O)[C@H](C)NC(=O)[C@H](CC(=O)O)NC(=O)[C@H](C)NC(=O)[C@H](Cc1ccc(O)cc1)NC)[C@@H](C)CC)[C@@H](C)O)C(C)C)[C@@H](C)CC)C(=O)N[C@@H](CC(=O)O)C(=O)N[C@@H](CCCNC(=N)N)C(=O)NC` has a relative potency of 450 (GH release; male rat, serum; subcutaneous, dose not given, 30 min; relative to: GHRH(1-29)NH2).
For `O=C1c2c(O)cc3oc4cc(O)c(O)cc4c3c2OC1Cc1ccc(O)cc1` (centres unmarked), the EC50 was 1230 µM (ABTS scavenging, absorbance).
`CCC1CC2C(C)=CC3C(=O)CCCC3C=CC(C)=CC2C(=O)O1` (centres unmarked) gave an oligomer reduction of 3.21% (A11 dot blot, item: amyloid-beta oligomers; 5XFAD mouse, hippocampus; oral gavage, 30 mg/kg/day, 5 days; relative to: vehicle).
`CCOC(=O)c1cc2c(N)c(C(=O)OC)sc2nc1C` — result for water intake: “increased” (Sprague-Dawley rats; subcutaneous, 100 mg/kg every 8 h, long-term dosing).
`CCCCCCCCCCCCCCCC(=O)N[C@@H](CCCCN)C(=O)N[C@@H](CCCCN)C(=O)N[C@@H](CO)C(=O)N[C@@H](CCCNC(=N)N)C(=O)N[C@@H](C)C(=O)N[C@@H](CC(C)C)C(=O)N[C@@H](Cc1ccccc1)C(N)=O`: platelet-thrombus deposition “no effect” (arteriovenous shunt Dacron graft; baboon; 1 mg/kg).
For `COc1ccc2c(c1)c(CC(=O)OCC(=O)c1ccccc1)c(C)n2C(=O)c1ccc(Cl)cc1`, “latency of nociceptive response” read 14.7 ± 1.11 s (hot plate test; BALB/c mice; 75 mg/kg, 60 min).
For `CC(C)(CCCC/C=C/CCCCCC(C)(C)C(=O)O)C(=O)O`, “serum TG, TC, LDL-C” read “decreased” (golden hamsters, high-fat high-cholesterol diet; oral, 10 mg/kg, 2 weeks; relative to: vehicle).
For `BP(=O)(OP(=O)([O-])OC[C@H]1O[C@@H](n2c[n+](C)c3c(=O)[nH]c(N)nc32)[C@H](O)[C@@H]1O)OP(=O)([O-])OC[C@H]1O[C@@H](n2c[n+](C)c3c(=O)[nH]c(N)nc32)[C@H](O)[C@@H]1O`, the IC50 ratio was 10 fold (cap-dependent translation; rabbit reticulocyte lysate; pre-incubated in lysate; relative to: m7GpppG over compound).
For `CCCC[C@H](NC(=O)[C@@H](NC(=O)[C@H](CC(=O)O)NC(=O)[C@H](CCC(N)=O)NC(=O)[C@H](CC(C)C)NC(=O)[C@H](CC(C)C)NC(=O)[C@H](CCCN)NC(=O)[C@H](CCCNC(=N)N)NC(=O)[C@H](C)NC(=O)[C@H](CO)NC(=O)[C@H](CC(C)C)NC(=O)[C@H](CCC(N)=O)NC(=O)[C@H](CC)NC(=O)[C@H](CC(C)C)NC(=O)[C@@H](NC(=O)[C@H](CCCN)NC(=O)[C@H](CCCNC(=N)N)NC(=O)[C@H](Cc1ccc(O)cc1)NC(=O)[C@H](CO)NC(=O)[C@H](CC(N)=O)NC(=O)[C@@H](NC(=O)[C@H](Cc1ccccc1)NC(=O)[C@@H](NC(=O)[C@H](C)NC(=O)[C@H](CC(=O)O)NC(=O)[C@@H](C)NC(=O)[C@H](Cc1ccc(O)cc1)NC)[C@@H](C)CC)[C@@H](C)O)C(C)C)[C@@H](C)CC)C(=O)N[C@@H](CC(=O)O)C(=O)N[C@@H](CCCNC(=N)N)C(=O)NCC`, the relative potency was 71.2 (GH release; male rat, serum; subcutaneous, dose not given, 15 min; relative to: GHRH(1-29)NH2).
`C[C@H](N)C(=O)N1CCC[C@H]1C(=O)NCC(=O)NCC(=O)O` gave an activation energy of 19.6 ± 0.956 kcal/mol (diketopiperazine formation, Arrhenius plot, ESI-MS; 1-propanol; 70, 80, 90 °C, 0.5% acetic acid).

A few entries again:
With `CCCC[C@H](NC(=O)[C@@H](NC(=O)[C@H](CC(=O)O)NC(=O)[C@H](CCC(N)=O)NC(=O)[C@H](CC(C)C)NC(=O)[C@H](CC(C)C)NC(=O)[C@H](CCCN)NC(=O)[C@H](CCCNC(=N)N)NC(=O)[C@H](C)NC(=O)[C@H](CO)NC(=O)[C@H](CC(C)C)NC(=O)[C@H](CCC(N)=O)NC(=O)[C@H](CC)NC(=O)[C@H](CC(C)C)NC(=O)[C@@H](NC(=O)[C@H](CCCN)NC(=O)[C@H](CCCNC(=N)N)NC(=O)[C@H](Cc1ccc(O)cc1)NC(=O)[C@H](CO)NC(=O)[C@H](CCC(N)=O)NC(=O)[C@@H](NC(=O)[C@H](Cc1ccccc1)NC(=O)[C@@H](NC(=O)[C@H](C)NC(=O)[C@H](CC(=O)O)NC(=O)[C@H](C)NC(=O)[C@H](Cc1ccc(O)cc1)NC)[C@@H](C)CC)[C@@H](C)O)C(C)C)[C@@H](C)CC)C(=O)N[C@@H](CC(=O)O)C(=O)NCCCCNC(=N)N` the relative potency was 91.2 (GH release; male rat, serum; subcutaneous, dose not given, 15 min; relative to: GHRH(1-29)NH2).
With `CC(=O)[O-].O.O.O.O.[Co+2].[O-]c1ccc(Br)cc1C=NCCN1CCOCC1` the inhibition was 58.5% (nitric oxide scavenging; 240 µM).
